# Results collected from several papers.
# Parts stem from different laboratories: compare values within a part only.

# Sample 1 — method: RNA Bind-n-Seq; molecule type: RNA; sample: in vitro; tested at: 365 nM; baseline: no-protein control; direction: higher = stronger binding
# Target: RNA binding protein fox-1 homolog 2, RRM domain, GST-SBP tag (RBFOX2, Homo sapiens, UniProt O43251-10, residues 100-194)
# Notes: natural RNA segment, single round, ends assumed
# All sequences stand within: GGGAGUUCUACAGUCCGACGAUC … UGGAAUUCUCGGGUGCCAA
# Construct (chain): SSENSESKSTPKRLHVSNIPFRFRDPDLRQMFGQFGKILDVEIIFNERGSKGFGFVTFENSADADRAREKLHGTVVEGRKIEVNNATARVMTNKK
Oligonucleotide,RBNS enrichment (R)
CAUAUACACUUGGAUCUCUGAGAGCAGAAACCCAACUCUCACUAGACAUACCUGUGAUGGAACACACAAACAGACACGCACCAUGGGGGGUGGCCCACAAAGCCUUACAC,0.43
GGGGAAAGGCCCUGCCAAUGUUUAACUUUUAAAAGCAUCUUAUCUAAAAGAAAGGCUAUCCAGUAGAGCCCAGUGCUCCCUUGUCCCUCUUUUAUGAUCAGGGUGAAAUG,0.662
GAAAAGAGGCCCAUGGCGUCGAGCCCAGCCCUGACCGCCAGCUGGCUGAGGUCGUGCCCUGCUGGGCUGCCCUCCAAUGUGCCUCACGCAAUAAAGAAUUCUCCCUCUGC,0.262
UCUAAAGUGUUUACCAGAUGCUGAAGGCAAGGGGAGGGAGCAGAAGCACUUAUGUUUACGGAUAUUUUAAACUCUGUUAGAGAGCAGCCUUUGAAAAUCCCCAAUUUGGU,1.22
CUUAUAUUGUGGCAUAUAGUCAACAUGGAAGUAGACCAGCUCUGCUGAUUUGAAAUUUAGAUUUUUUAAAUUAUGUACUGGGGACAGGUUUUUGUCGCUUUACAUUGCUU,0.5
AACAGUCUCAAGGGCUGAAGCCCAUUCAUUUUAUAAGCUGUCACCAUGGGCUGCUGCUUCCUCUUGCCUUAAAAGUACACUCUCCAGGUGUGUCAGGGACUCUGUUUACU,0.39
GUUUCCCCUCAAUCAGGUUGAUAAGACCUUCUAAGCUUCUGCCAAGCAUCUUCAGUGCUCACAAUCAUGUGUCCCCUAGCCUCACCCCUGCAGUUCAGGCCUGUUUCUGU,1.33
UUAAGGGCACACAGCUAAUAAGUAAUAGGCCUAAACUGGAUUUCCUUAUUCCAAAUCCUGUCUUUUCCCCACUAUUCCAUUAGACCCCACAAAUGUUAGUUGUGUGUGUG,0.365
AAAUUUUAAAAAUCUAAGCAGCUUAUUGUUUCUCUGAAAGUGUGUGUAGUUUUACUUUCCUAAGGAAUUACCAAGAAUAUCCUUUAAAAUUUAAAAGGAUGGCAAGUUGC,1.38
CCCCAGGAAUCUCUAAGACCAGGGCUGGGGCAGUGUCUGUCACUGGCUUGUUUGUUCCCUACCAAUAUUCUGUUGCUGUUUGAAGUAGUGCCAGGGUCCCCUGGGAAGAU,0.894
UGCUGCUUUAGUCUUCUUUUCUUUGAUGCUUUGUUUAGAUGUUUAUAAGAAAUAGGUUUAUUUUUCCAGUGUAAAUUUCAGAAUUUAAAGAAAACUGGUUGUAGUUUACU,0.876
UUUUUUUCUUUUGGUAUUUGCAUAAAAUGAAAAUAUCACCGAAUAUUAAAUCACUGUGGAUCCAUUAUCUACUUUUCAUAUUUGUCCAUUCCAUUUUUGUGCCAUUUCUG,0.627

# Sample 2 — method: protein-binding microarray; molecule type: double-stranded DNA, one strand shown; sample: in vitro; tested at: 2200 nM top; notes: 60-bp whole probe; with: salmon DNA 0.4 mg/ml; baseline: random background probes; direction: higher = stronger binding; all sequences stand within: GCCTAGCAC … GTCTTGATTCGCTTGACGCTGCTG
# Target: Interferon regulatory factor 7, full length, phosphomimetic (IRF7, Homo sapiens, UniProt Q92985, residues 1-503, S471D/S472D/S475D/S476D/S477D/S483D/S484D/S487D)
# Construct (chain): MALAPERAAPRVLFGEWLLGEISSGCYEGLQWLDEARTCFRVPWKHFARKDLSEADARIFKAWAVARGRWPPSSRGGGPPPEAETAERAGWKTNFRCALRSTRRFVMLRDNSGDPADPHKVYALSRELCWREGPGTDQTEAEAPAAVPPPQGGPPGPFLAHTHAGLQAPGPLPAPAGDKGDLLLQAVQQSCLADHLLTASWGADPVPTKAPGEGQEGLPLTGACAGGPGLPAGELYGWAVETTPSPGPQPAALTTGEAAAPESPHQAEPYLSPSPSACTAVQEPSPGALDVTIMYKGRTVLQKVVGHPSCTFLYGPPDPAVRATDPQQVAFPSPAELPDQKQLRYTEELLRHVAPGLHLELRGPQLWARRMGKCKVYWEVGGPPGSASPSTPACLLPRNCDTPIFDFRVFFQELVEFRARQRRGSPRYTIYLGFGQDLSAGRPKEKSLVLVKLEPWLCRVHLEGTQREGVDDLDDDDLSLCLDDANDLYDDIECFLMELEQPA
Oligonucleotide,fitted relative affinity [z-score]
TTAGGACTGGGACTGGGTGAGTGCTAG,-1.15
GACGATATCAGGCTCGAGACGTGCTAG,-0.0652
TCACTTATTAAGATTGTGACTGTGCTA,0.301
TTGTCTCCCCCATCTTGTTCCGTGCTA,0.996
TTTGATCTCAGTTTCGATTAGTGCTAG,6.08
TTTCCCATGAGTCTCAATATGTGCTAG,2.92
TTAGGACTGCTTCTCCTTGAGTGCTAG,0.566
TTAGGTCTCCATATCCTTTAGTGCTAG,0.949
TATCAGCAAACTTTTCTTGAGTGCTAG,0.131
GACGGTCTCCTACTGTTGACGTGCTAG,0.862
TCAGTTCTGATCCTTCCCACTGTGCTA,2.1
GACGGGCTGGACTATCGGGACGTGCTA,-1.25
TTAGGTTTCGGTATCGATTAGTGCTAG,6.67
TTAGGACTGGGGTATCGGTTCGTGCTA,0.16
GTCAGTTTTGAGCTCTGTCTGTGCTAG,0.704
TTCGGTATCGGTTTCGGTTAGTGCTAG,7.74
GACGGATTCGGTTTCGGGACGTGCTAG,6.98
GACTGTTTGGTCCTGATCCTGTGCTAG,1.24
TCATCTTTGCAGATAAAACTGTGCTAG,0.714
TCAAATTTCCCTCTCCCACTGTGCTAG,1.54
GACAGTATCGACACTGGGGACGTGCTA,-0.27
TTAGGTTTCGGGTATCGGTTCGTGCTA,7.02
TCAATTTTCAATTCCTGACTGTGCTAG,2.5
TGTTTTTCATTGTTTTTCATCGTGCTA,2.32
TTAGGTTTCGAGTTTCGGTTAGTGCTA,9.44

# Sample 3 — method: universal PBM; molecule type: double-stranded DNA, one strand shown; sample: in vitro; tested at: not given; direction: higher = stronger binding
# Target: Sal-like protein 4, full length isoform B (SALL4, Homo sapiens, UniProt Q9UJQ4-2, residues 1-616)
# Notes: 8-mer, flanks averaged, mean of replicates
Oligonucleotide,E-score
CGCGCGCG,-0.369
CCTTGATC,-0.0853
CAGCTGAC,-0.177
CCTTCTAA,0.129
CGATCGTA,-0.0334
ATCCATTC,0.122
CGGTGACA,-0.199
ACTGGCTG,-0.273
CCAGAATA,0.175
AGGACGGG,-0.184
AGTTGATA,0.228
GACTATAA,0.265
CCAATCCG,-0.151
AAAGAGCA,0.032
TAAGAGAA,0.215
GCGTGATA,0.046
CCCAGGGC,-0.434

# Sample 4 — method: RNA Bind-n-Seq; molecule type: RNA; sample: in vitro; tested at: 200 nM; notes: whole 134-nt RNA, ends assumed; with: 150 mM LiCl; baseline: input library; direction: higher = stronger binding; all molecules: 7-deaza-guanosine replaces G
# Target: Fragile X messenger ribonucleoprotein 1, C-terminal low-complexity region (Fmr1, Mus musculus, UniProt P35922)
# All sequences stand within: GGGAGUUCUACAGUCCGACGAUC … UGGAAUUCUCGGGUGUCAAGG
Oligonucleotide,log2 enrichment
GUCCUGUGCUACACAUCGUAUGUACCGAAUCGGGGUUUGGGGAAAAAAAGGGGAGGGGAAAGUAUUAUGUUACGCCGUUCGGAUCUGCAC,0.0927
UCCUGUGCUACACAUCGUAUGUACCGAAUCGGGUUUUUUUGGGAAAGGGUUUUUUUGGGAAAGUAUUAUGUUACGCCGUUCGGAUCUGCA,-1.77
GUCCUGUGCUACACAUCGUAUGUACCGAAUCGGAAAAAAAGGAAAAAAAGGUUUUUGGAAAGUAUUAUGUUACGCCGUUCGGAUCUGCAC,-2.05
GAGGGAGUUUGCAGAUACCUCAGGAUUCGUGACAAUGCCUUUAAAGAUCCAGGAGAGAUGUUCAGCUACUAGGAACUGCUAGCAAGUAUA,-0.903
UUUAGUGACUUUGGAUGAAGUAACUGAAGAGGAUGAAGACUCUCUGGCGGAUUUUAACAACCUUAAAGAAGAGCUUAAUUUUGUUACUGU,-3.89
UGGGAGGUGGAUUUUGUUUAUUUUUUUAGCUCAUUUCCAGGGGUGGGAAUUUUUUUUUAAUAUGUGUCCUGAAUAAAGUUGUUUUUGAAA,0.274
UCCUCAAGUCCUGUGCUACACAUCGUAUGUACCGAAUCGGGGCGGCGGCGGGAAAGUAUUAUGUUACGCCGUUCGGAUCUGCACUUCCAG,0.427
ACCAUGCAGGUGGGCAUCUUUGGGAAGUGGGGCAAGGGGGGGAUAGGGAGGGGGGAAACACUUUGGGAACAGGUGGUCCCAGGUCGUUUC,0.813
ACCAUGCAGGUGGGCAUCUUUGGGAAGUGGGGCAAGGGGGGGAUAGGAAGGGGGGUAACACUUUGGGAACAGGUGGUCCCAGGUCGUUUC,1.25
UCCUCAAGUCCUGUGCUACACAUCGUAUGUACCGAAUCGGAGGAGGGGAGGAAAGUAUUAUGUUACGCCGUUCGGAUCUGCACUUCCAGC,-2.53
GUCCUGUGCUACACAUCGUAUGUACCGAAUCGGAAAAAAAGGUUUUUUUGGUUUUUGGAAAGUAUUAUGUUACGCCGUUCGGAUCUGCAC,-2.91
